# Experimental data from different studies.
# Protocols differ between the studies behind these lines. “And” joins repeats or separate records; there may be more than shown. Numbers after ± are the reported error.
Substance,tested on,assay,system,conditions,how to read,measurement,result
human retinal dehydrogenase 1,,co-immunoprecipitation,human RBC cytosol,"DSSO crosslinker, unit not given, with: Band 3 peptide 1-56 bait",baseline: negative control,co-IP enrichment,5140
QGRWDHETIV,human MAGI1-2/6 PDZ construct (MBP fusion),automated holdup,"peptide, purified PDZ protein","concentration not given, unit not given","baseline: biotin control resin, higher = stronger binding",binding intensity,-0.124
IMQLMPFGCLL,"HLA class I histocompatibility antigen, A alpha chain, allele A*02:01 (Homo sapiens, UniProt P04439)",conformational ELISA,peptide,concentration not given,"baseline: positive control peptide, direction not given",binding score,76%
TASPAKETSF,human SCRIB PDZ3-4 tandem (MBP fusion),surface plasmon resonance,peptide,concentration not given,higher = stronger binding,normalised SPR binding response,70.8 normalised RU
RLYQWIPQV,Jurkat T cells expressing 1G4 TCR,"NFAT-eGFP reporter, fluorescence microscopy",peptide,"concentration not given, HLA-A*02:01 NY-ESO system",,reporter activation,1.31%
PKRSFIESNV,human MAGI1-3/6 PDZ construct (MBP fusion),surface plasmon resonance,peptide,concentration not given,higher = stronger binding,normalised SPR binding response,0 normalised RU
KITDFGRAKL,"HLA class I histocompatibility antigen, A alpha chain, allele A*24:02 (Homo sapiens, UniProt P04439)",conformational ELISA,peptide,concentration not given,"baseline: positive control peptide, direction not given",binding score,13.4%
Peginesatide,UT7/EPO,"tyrosine phosphorylation, LC-MS/MS phosphoproteomics, GluC, refers to: PTPN18 tyrosine 387",,"10 nM, 15 min, with: 10 U/mL EPO",baseline: vehicle,phosphorylation level,20 fold
GLGTWISQV,Jurkat T cells expressing 1G4 TCR,"NFAT-eGFP reporter, fluorescence microscopy",peptide,"concentration not given, HLA-A*02:01 NY-ESO system",,reporter activation,3.27%
ERK2,,co-immunoprecipitation,human RBC cytosol,"no crosslinker, unit not given, with: Band 3 peptide 1-56 bait",baseline: negative control,co-IP enrichment,0
GSGAGHETIV,human MAGI1-2/6 PDZ construct (MBP fusion),automated holdup,"peptide, purified PDZ protein","concentration not given, unit not given","baseline: biotin control resin, higher = stronger binding",binding intensity,0.173
hemoglobin beta,,co-immunoprecipitation,human RBC cytosol,"unit not given, with: Band 3 peptide 1-56 bait",baseline: negative control,co-IP enrichment,2.9
caspofungin,,,"adult ICU patients, mITT, serum","dose not given, Baseline",,magnesium,0.8 mmol/L
GLMQWNYRA,Jurkat T cells expressing 1G4 TCR,"NFAT-eGFP reporter, fluorescence microscopy",peptide,"concentration not given, HLA-A*02:01 NY-ESO system",,reporter activation,0.00716%
"FNA / CGLSGLGVA-NH2 ([18F]FNA-labelled, C-amide)",,gamma counting,"peptide, glioblastoma mice, brown adipose tissue","60 min, with: CooP blocking, 500-fold excess",,tissue uptake,0.18 %ID/g
Polymyxin B,Staphylococcus aureus,DiSC3(5) fluorescence,,"concentration not given, 69 min",higher = more depolarisation,membrane depolarisation,665 a.u. and 489 a.u. and 549 a.u.
CCT6A,,co-immunoprecipitation,human RBC cytosol,"DMTMM crosslinker, unit not given, with: Band 3 peptide 1-56 bait",baseline: negative control,co-IP enrichment,29100
GSGAGSETVV,human MAGI1-2/6 PDZ construct (MBP fusion),automated holdup,"peptide, purified PDZ protein","concentration not given, unit not given","baseline: biotin control resin, higher = stronger binding",binding intensity,0.114
colistin,Salmonella enterica Enteritidis,broth microdilution,clinical isolate RKI 205/14,,,MIC,8 µg/mL
PLLEWMPRL,Jurkat T cells expressing 1G4 TCR,"NFAT-eGFP reporter, flow cytometry",peptide,"concentration not given, HLA-A*02:01 NY-ESO system",,reporter activation,0.19%
MTVCNASQRQAHAQATAVSL,H2122 lung adenocarcinoma,phage binding output/input,peptide,,baseline: control phage,selectivity ratio,4.8 ± 1.5
EKPIDSETKM,human MAGI1-3/6 PDZ construct (MBP fusion),automated holdup,"peptide, crude extract","concentration not given, uncorrected, unit not given","baseline: biotin control resin, higher = stronger binding",binding intensity,0.728
cotadutide,,"metabolomics, refers to: hepatic 1-arachidonylglycerol (20:4)","ob/ob mice on AMLN diet, NASH model, liver",dose not given,,metabolite level,0.6 ± 0.12 scaled intensity
SLLQWISQV,Jurkat T cells expressing 1G4 TCR,"NFAT-eGFP reporter, fluorescence microscopy",peptide,"concentration not given, HLA-A*02:01 NY-ESO system",,reporter activation,26.7%
epoetin alfa,UT7/EPO,"microarray, refers to: OSM mRNA (probe set 230170_at)",,"5 U/mL, 90 min",baseline: vehicle,mRNA level,50.2 fold
GLLQWVSQV,Jurkat T cells expressing 1G4 TCR,"NFAT-eGFP reporter, flow cytometry",peptide,"concentration not given, HLA-A*02:01 NY-ESO system",,reporter activation,59.3%
tripeptidyl peptidase 2,,co-immunoprecipitation,human RBC membrane,"unit not given, with: Band 3 peptide 1-56 bait",baseline: negative control,co-IP enrichment,0
ACEEQNPWARYLEWLFPTETLLLEL,,ex vivo fluorescence imaging,"peptide, BALB/c mice, 4T1 tumour-bearing, kidney","intravenous, 5 nmol, 2 h post-injection",higher = more uptake,mean fluorescence intensity,1350 ± 146 a.u.
human alpha-enolase,,co-immunoprecipitation,human plasma,"unit not given, with: Band 3 peptide 1-56 bait",baseline: negative control,co-IP enrichment,0.889
GSGAGIESNV,human MAGI1-3/6 PDZ construct (MBP fusion),automated holdup,"peptide, crude extract","concentration not given, uncorrected, unit not given","baseline: biotin control resin, higher = stronger binding",binding intensity,0.715
SLLMWVCQV,Jurkat T cells expressing 1G4 TCR,"NFAT-eGFP reporter, flow cytometry",peptide,"concentration not given, HLA-A*02:01 NY-ESO system",,reporter activation,1.93%
human serum albumin,,co-immunoprecipitation,human RBC membrane,"DMTMM crosslinker, unit not given, with: Band 3 peptide 1-56 bait",baseline: negative control,co-IP enrichment,17.2
GSGAGKESYV,human MAGI1-3/6 PDZ construct (MBP fusion),surface plasmon resonance,peptide,concentration not given,higher = stronger binding,normalised SPR binding response,97.4 normalised RU
human delta-aminolevulinic acid dehydratase,,co-immunoprecipitation,human RBC membrane,"DMTMM crosslinker, unit not given, with: Band 3 peptide 1-56 bait",baseline: negative control,co-IP enrichment,37.1
6-carboxyfluorescein,"SLCO2A1 (Homo sapiens, UniProt Q92959, Y90A)","compound uptake, substrate",HEK293F expressing SLCO2A1 Y90A,50 µM,baseline: wild type,uptake,60.3% and 65.3%
SLLQWIAQV,Jurkat T cells expressing 1G4 TCR,"NFAT-eGFP reporter, flow cytometry",peptide,"concentration not given, HLA-A*02:01 NY-ESO system",,reporter activation,51.1%
milbemycin oxime,Saccharomyces cerevisiae,cell growth,"Pdr5 deleted, Cdr1 overexpressed","2^-9.966 µg/mL, with: fluconazole 10 µg/mL",,OD600,1.02 and 1.04 and 1.07
